# Experimental data pooled from the literature.
# Compare with care: the assays were run in different laboratories. ± marks the error that the study gave.
SMILES,cell line,assay,setting,how to read,quantity,result
FC(F)(F)c1ccnc(-c2cc(C(F)(F)F)ccn2)c1.FC(F)(F)c1ccnc(-c2cc(C(F)(F)F)ccn2)c1.[Cl-].[Cl-].[Ru+2].c1csc(-c2ccc(-c3ccc(-c4ccc(-c5nc6c7cccnc7c7ncccc7c6[nH]5)s4)s3)s2)c1,SK-MEL-28,cell viability,"hypoxia 1% O2, together with: red light",baseline: dark EC50 over light EC50,mean phototherapeutic index,21
CC(=O)OC[C@H]1O[C@@H](Sc2sc(C(=O)c3ccc(Br)cc3)c(N)c2-c2nc3ccccc3s2)[C@H](OC(C)=O)[C@@H](OC(C)=O)[C@@H]1OC(C)=O,SK-MEL-2,SRB,"10 µM, 48 h",baseline: untreated,growth,106%
NC(=O)C[C@H]1CCc2sc3ncnc(O[C@H]4CC[C@H](N5CCOCC5)CC4)c3c21,"GCB DLBCL lines, wild-type MYD88",,"concentration not given, 4 d",,viability,no effect
CO[C@H]1N(OC)c2ccccc2[C@@]12CN=C(Nc1cc(C(F)(F)F)cc(C(F)(F)F)c1)S2 (relative stereo),HCT-116,annexin V/PI flow cytometry,"40 µM, 72 h",,viable cells,36 ± 14.1%
CC(C)Cc1ccc(C(C)C(=O)[O][Pt]([NH2])([NH2])([Cl])([Cl])[O]C(=O)C(Cl)Cl)cc1 (stereo not shown),six human cancer cell lines,MTT,,baseline: oxaliplatin over compound,mean IC50 ratio,~8
COc1cc(CNC(=O)C[C@H](C)CCC=C(C)C)ccc1OCc1cn(-c2cccc(Cl)c2)nn1,SK-MEL-2 melanoma cells,SRB,"10 µM, 48 h",,growth percent,95.5%
CCCCCCCCN(CCC(=O)Nc1ccccc1)C(=O)c1ccccn1,HGPS fibroblasts,,"2 µM, 10 days",,phospho-Akt level,increased
O=C1NCC(Cc2ccccc2)N(CC2CCCN2CC(CC2CCCCC2)N2CC(Cc3ccc(O)cc3)N(CCc3ccccc3)C(=O)C2=O)C1=O (stereo not shown),WM 266-4,RT-PCR,"50 µM, 2 h",,spliced XBP1 share,60 ± 5%
COc1cc(CNC(=O)C[C@H](C)CCC=C(C)C)ccc1OCc1cn(-c2ccc(Br)cc2)nn1,RPMI-8226 leukaemia cells,SRB,"10 µM, 48 h",,growth percent,69.3%
COc1ccc(NC(=O)CCc2nc3cc(Cl)ccc3[nH]c2=O)cc1,unspecified cells,,"concentration not given, unit not given",baseline: untreated control,BAX level,4.3
COc1cc(CNC(=O)C[C@H](C)CCC=C(C)C)ccc1OCc1cn(-c2ccc(F)cc2)nn1,RPMI-8226 leukaemia cells,SRB,"10 µM, 48 h",,growth percent,75.3%
CC/C=C\C/C=C\C/C=C\C/C=C\C/C=C\C/C=C\CCC(=O)Nc1ccn(C2OC(CO)C(O)C2(F)F)c(=O)n1 (stereo not shown),SK-MEL-2,"cell growth or viability, SRB",,,GI50,13.2 µM
COc1ccc([C@@H]2CC(=O)c3c(O)cc(O[C@@H]4O[C@H](CO[C@@H]5O[C@@H](C)[C@H](O)[C@@H](O)[C@H]5O)[C@@H](O)[C@H](O)[C@H]4O)cc3O2)cc1O,MRC5,trypan blue exclusion,"100 µg/mL, 48 h",,cell count,13300 ± 498
COc1cc(CNC(=O)C[C@H](C)CCC=C(C)C)ccc1OCc1cn(-c2ccc(C#N)cc2)nn1,SK-MEL-2 melanoma cells,SRB,"10 µM, 48 h",,growth percent,80%
O=Cc1c(O)ccc2ccccc12,HUVEC,"RNA sequencing, refers to: BMP2","75 µM, 24 h",baseline: DMSO,log2 fold change,3.05
COc1cc(CNC(=O)C[C@H](C)CCC=C(C)C)ccc1OCc1cn(-c2ccccc2Cl)nn1,RPMI-8226 leukaemia cells,SRB,"10 µM, 48 h",,growth percent,47.6%
C[N+]1(CC(=O)OC2CCCCCCCCCCC2)CCCCC1,LNCaP expressing AR-V7,"cell viability, CellTiter Blue",96 h,,ED70,8.9 µM
COc1cc(CNC(=O)C[C@H](C)CCC=C(C)C)ccc1OCc1cn(-c2cccc(C(F)(F)F)c2)nn1,A498,SRB,"10 µM, 48 h",,growth percent,91%
CCc1noc(CC)c1C(=O)O[C@H]1C(C)=C[C@]23C(=O)[C@@H](C=C(CO)[C@@H](O)[C@]12O)[C@H]1[C@@H](C[C@H]3C)C1(C)C,human primary epidermal keratinocytes,CyQUANT DNA content,"above 100 nM, 72 h",baseline: vehicle,cell number,20%

# Excerpt of the above:
SMILES,cell line,assay,setting,how to read,quantity,result
CC/C=C\C/C=C\C/C=C\C/C=C\C/C=C\C/C=C\CCC(=O)Nc1ccn(C2OC(CO)C(O)C2(F)F)c(=O)n1 (stereo not shown),SK-MEL-2,"cell growth or viability, SRB",,,GI50,13.2 µM
COc1ccc([C@@H]2CC(=O)c3c(O)cc(O[C@@H]4O[C@H](CO[C@@H]5O[C@@H](C)[C@H](O)[C@@H](O)[C@H]5O)[C@@H](O)[C@H](O)[C@H]4O)cc3O2)cc1O,MRC5,trypan blue exclusion,"100 µg/mL, 48 h",,cell count,13300 ± 498
COc1cc(CNC(=O)C[C@H](C)CCC=C(C)C)ccc1OCc1cn(-c2ccc(C#N)cc2)nn1,SK-MEL-2 melanoma cells,SRB,"10 µM, 48 h",,growth percent,80%
